Experimental data from different studies.
A part holds a random share of what one study measured.

Block 1 — method: RNA Bind-n-Seq; form: RNA; medium: in vitro; concentration: not given; notes: RNA with constant flanks, ends assumed; relative to: input RNA pool; reading: higher = stronger binding
Target: RING finger protein unkempt homolog, zinc fingers 1-6, GST-SBP tag (UNK, Homo sapiens, UniProt Q9C0B0, residues 30-357)
Shared flanks, not repeated: GGGAGUUCUACAGUCCGACGAUC … CAACAGAGGAUUGAGCAUCA
Construct (chain): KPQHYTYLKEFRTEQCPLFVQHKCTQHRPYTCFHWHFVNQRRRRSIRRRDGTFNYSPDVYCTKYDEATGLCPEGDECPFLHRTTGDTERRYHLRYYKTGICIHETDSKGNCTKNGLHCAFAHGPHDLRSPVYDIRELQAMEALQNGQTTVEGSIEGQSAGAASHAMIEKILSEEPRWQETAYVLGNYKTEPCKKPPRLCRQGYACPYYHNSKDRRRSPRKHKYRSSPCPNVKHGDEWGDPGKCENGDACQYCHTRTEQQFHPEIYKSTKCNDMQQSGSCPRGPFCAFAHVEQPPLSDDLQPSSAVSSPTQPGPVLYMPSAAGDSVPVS
Strand	bound/input enrichment
GUUUUGCCAAAACCUCGGAUGCGUGGCCUUCUGGCCAGGCGUCUGCGAAAUCAUAUGGCUGCCGCAUUCGUGCUAUCCCUGGGGGUUGCAGCUUUGUAUAAGUUUCGUGUGGCUGAUCAA	0.099 ratio
AAGCUCCCAGUGUGGGUGGUGGAGGAUCAUCAGGAGGUUCUACCCUUUAUAUACCGGGCCACCGGCUCAAAGCAUCUUCCUGCCAGUAAUGUAAGUUUUUUACAUUUCGACUCACAUCCA	0.161 ratio
GCGGCCUCAUUGCUCCGUUUUCAGAGUACCUUGGUAAUAGCUGAGCAUGCAAAUGAUUCCCCCGCACCCAUUACUCUAAAUACUAUCACUGCAGCUGGACGUCUUGGAGGUGAAGUGUCC	0.324 ratio
UAAGAAUUGGAAGAAUUGUGUAGGAGGCAGUAGUCAAAAAGUAGAAGCAGUUUGGAAGAGCCGUUACAAAUAUCAAGAGCCAGGUGGCUAAAAGGUGGAGCUAUAGGUCAUUGAAGCUCA	3.57 ratio
UUCUUCACUCCGUAUGUAUAUCCAGCCACGUGGCCCGAGGACAACAUCAUCCGACAAACUAUCCGCCUCCUGAUUGUCACAAACCUGGGUGCUUACAUUCUCUACUUCUUCUGUGCAACC	0.356 ratio
GUGACAGACAUUAAAAUUUACCCUCAGAAAAGAACUGUAGCAGUGACAAUAAUCCCUUCUACCGUGAAUGCCAAUCAGAUAAAAGAGCUGGUUCCAGAACUCAGUUUAGAUACUGGGACA	0.284 ratio
AAUGGGAAAACGGUAUAUGCACCAUCCCCAAAUUCAGAUGAUUUCAACCGUGAAUCUCCCCGUUAUCCAUCUCCUAAGCCACCAACCAGUAUGUUCGCUAGCACUUUCUUUAUGCAAGAU	1.25 ratio
CCGAUGAACAGGAAAUCAAUGCCUGAGGCUGACUUCAGCUCCUGGACACCCUUAGAAUUCCCCGUUGAAACUUUCCAUGACUGGAUCACAGGGAAAAACCGACCGAGCUCAGGAAGCCUA	0.191 ratio
AAUAAAAUGUACAAAUUUGUUGUGUUUUUUUAUGUUCUAAUAAUACUGAGACUUCCCGGUCUCCGGUUAAUUUUUAGGAAGAUCUUGCAUGCCAUCAGGAGUAAAUUUUAUUGUGGUUCU	0.755 ratio
CAGCAGUCAUCUCUCAGUAGGGACUCACAGGGUCAUGGGCGUGACCUGUCUGCGGCAGGAACCGGCCUUCUUGCUGCUGCUACCCAGUCUUUAAGUAUGCCAGCAUCUCUUGGAAGGAUG	0.0554 ratio
UGGCAUAAACUCUCUGCUGACAACAUGGACCCAGACUUUGUGGAGAGACGACGCGUGGGCUCCGAAAACUUCCUCUUGAGGGUUGCUUCACAUCCUGUCCUUUGUAGAGACAAAAUCUUC	0.204 ratio

Block 2 — method: RNA Bind-n-Seq; form: RNA; medium: in vitro; concentration: 365 nM; relative to: no-protein control; reading: higher = stronger binding
Target: RNA binding protein fox-1 homolog 2, RRM domain, GST-SBP tag (RBFOX2, Homo sapiens, UniProt O43251-10, residues 100-194)
Notes: natural RNA segment, single round, ends assumed
Shared flanks, not repeated: GGGAGUUCUACAGUCCGACGAUC … UGGAAUUCUCGGGUGCCAA
Target sequence (chain): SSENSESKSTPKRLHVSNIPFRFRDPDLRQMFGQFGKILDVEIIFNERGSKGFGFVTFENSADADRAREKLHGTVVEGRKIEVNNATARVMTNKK
Strand	RBNS enrichment (R)
UACUCCCCCAAGUUGGGGAAAGGAGGGGGAACCUACGAGAAAAACAGCUCAGGUUUUAUCACCGACUGGGAAUAGACAACCUCAAUGCUGAACCGCACUGGAGAAAAGGG	0.413
CCAUGGGAACGGAUGUGGAAGGAAGAACUGUCACCCUCUUAAGGCCCAGGGUCGGAGCCCAGGGCCUCUCCCUUCCUGUCGUUCAAUGGACGUGGUGGUGGCUGUUCCAC	0.327
GGCUCAGGCUACUAUGACCAAUAGAAGUGAAAGUCUUGGUCAUAAUUUGGGGUGACAUGCUGUCAAAAGGCUAAUAUAGACUGGGUGUGGUAGUGCACACCUUGAAUCUG	0.472
UCAUCACAUACCUAUUUUGUAACAAGUGAGCUUGAGAAAAUUAAGAAAAUAUAUACAUUUAUUUAGCCAAAAGGAAUGAAGAAAGCAUUUACACAUUUGUGUUUUAUCUG	0.725
CUGACAACCCGUGUUUCCUUUAUUAAAAGUGAUUAGUACAACUGCUAGUUAUUUUCAACAAAUAAAGCCAUUAUGUUAAGAGGGGACUGUCCAUAGUGAGUGAAAGGUGG	0.459
CCCUAGGCUCAGGUAGCUUGUUCCUUGGGGUGGGAAGGGAGCUAGGGAAGGGUCAAAGUGUGGACAUUGAGAAGAGGAGAGGAAAGGAGCAAGAGCUGAACUCCUGCUGC	0.971
AAGCCCUUCUGAUGAUUCCAAUGUGUUGGAAAGUUUACCUUGUCUCAGAUGUAACUGGUAAAGGCUGAUUUCUAAAUUUUCUGUAAUUGCAGCAACCUUUCUCUCCUGUC	0.348
ACGCCAAAACGUAGGCUUAGUUUGUGUGUUGUCUCUGAGUUUGUCGCUCAUGCGUACAACAGGGUAUGGACUAUCUGUAUGGUGCCCCAUUUUUGGCGGCCCGUAAGUAG	0.405
CUUGAAAUUGAUCUCUAUACUCUAGCCCCUCAGCCAGCCUCCUUCCUGUUGUCUGAAACCUGGAGCUAAGCAGGUUGUCCUGUCACAAGCUCUGGGGACUGAGCUCCAUG	0.277
AUACACAGUGUGUAGGAACAGCUGCCUGGGAAGCUGUGUGUCUGUCCCUCUGUUCACUACCCUCUUGCUCUGAGGCACGCUGGUUCUGGAGUAUAUUUCCACCUAUGAUG	0.796
AAAAGUUUCUACUCAGAACUGGGGAAGGAGUGGAACUUAUGACUUGGGCCUCUAGGCUGUCUCUGUCCCCUCAGCUCCCCGACAUGCAUUUACUCUCUGCCGUGGGUCUG	0.372
AAGACCAAAAGGAAACCAACCGAGUGGGGGUUUGGAGGAGUCGGAAGUAGCAUCUCCAGGCAAGCUGCCCGAGGAAGGGAACAAGUCGCAAUGUUAGAAGAUGCCAUAAA	0.758

Block 3 — method: protein binding microarray; form: double-stranded DNA, one strand shown; medium: in vitro; concentration: not given; relative to: not given; reading: higher = stronger binding
Target: Histone acetyltransferase KAT6A, winged helix 1, GST fusion (KAT6A, Homo sapiens, UniProt Q92794, residues 1-85)
Notes: 8-mer, flanks averaged, mean of 2 arrays, mostly near background
Residues (chain): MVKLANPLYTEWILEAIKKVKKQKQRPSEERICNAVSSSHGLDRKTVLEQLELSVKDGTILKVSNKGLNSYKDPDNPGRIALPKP
Strand	E-score
AGCACTTC	-0.121
AATTCTAA	-0.0427
CGTAGTGA	-0.0163
CGAAGCAG	0.055
CTGTGTAC	-0.00209
GTTGCTAA	-0.119
AGTCCGTC	0.205
CTCGAAGA	-0.17
GGATGACA	-0.0214
AGACATTC	-0.0714
ACACCCGT	0.141
CAACGCGC	0.343
ACAATTGC	-0.0363
CTTGAAGA	-0.201
AGCTCAAG	-0.168
CTATTGGC	-0.02
CACTCCGA	0.00279
AGTGAGAT	-0.0338

Block 4 — method: RNA Bind-n-Seq; form: RNA; medium: in vitro; concentration: 200 nM; notes: whole 134-nt RNA, ends assumed; with: 150 mM KCl; relative to: input library; reading: higher = stronger binding
Target: Ras GTPase-activating protein-binding protein 1, full length (G3BP1, Homo sapiens, UniProt Q13283)
UniProt Q13283, sequence (whole entry, looked up): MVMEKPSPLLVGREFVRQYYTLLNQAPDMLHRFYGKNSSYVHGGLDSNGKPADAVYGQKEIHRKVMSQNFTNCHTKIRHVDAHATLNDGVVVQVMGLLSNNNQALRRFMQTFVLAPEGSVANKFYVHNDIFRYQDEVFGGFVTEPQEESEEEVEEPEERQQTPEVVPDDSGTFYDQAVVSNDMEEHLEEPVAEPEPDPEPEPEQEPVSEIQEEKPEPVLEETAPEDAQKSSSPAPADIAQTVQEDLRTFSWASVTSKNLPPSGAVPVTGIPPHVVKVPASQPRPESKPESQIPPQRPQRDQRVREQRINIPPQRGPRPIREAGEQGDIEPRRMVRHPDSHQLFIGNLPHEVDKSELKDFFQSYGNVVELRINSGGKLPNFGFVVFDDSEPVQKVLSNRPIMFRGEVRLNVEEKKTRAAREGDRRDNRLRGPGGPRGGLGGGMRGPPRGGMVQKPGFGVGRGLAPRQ
Shared flanks, not repeated: GGGAGUUCUACAGUCCGACGAUC … UGGAAUUCUCGGGUGUCAAGG
Strand	log2 enrichment
CCUCAAGUCCUGUGCUACACAUCGUAUGUACCGAAUCGGAAAGGUUUGGUGGAAAGUAUUAUGUUACGCCGUUCGGAUCUGCACUUCCAG	-0.37
UCAAGUCCUGUGCUACACAUCGUAUGUACCGAAUCGGGGUUUGGUUUGGGUUUGGAAAGUAUUAUGUUACGCCGUUCGGAUCUGCACUUC	-0.422
UUUGAGGUCAAACGCCGCGGGGAACUGCAGCUGAUUAAGAUCUUCCAAUCCUCGGUGUUUGAGGCCUUCCUCAAGGGCAGCACGCUGGAA	-1.86
UAACUUUAGAGGAGGAUCUGAUGGAUAUGGCAGUGGACGUGGAUUUGGGGAUGGCUAUAAUGGGUAUGGAGGGGGACCUGGAGGUGGCAA	0.738
UUCCCUGUACCGGCAGAGUUCACAAACACAUUUGAAGAGGCUUUUUCUCAGGAUUCUUAACCUUCCCAAAGGAAGUCCCAUGGAUGGGUU	-1.19
UGGCAGGUGGAUUUUGUUUAUUUUUUUAGCUCAUUUCCAGGGGUGGGAAUUUUUUUUUAAUAUGUGUCAUGAAUAAAGUUGUUUUUGAAA	-0.17
CUGUGCUACACAUCGUAUGUACCGAAUCGGGGCCCCCCGGGGCCCCCCGGGGCCCCCCGGGGAAAGUAUUAUGUUACGCCGUUCGGAUCU	-1.55
UGGGAGGUGGAUUUUGUUUAUUUUUUUAGCUCAUUUCCAGGGGUGGGAAUUUUUUUUUAAUAUGUGUCCUGAAUAAAGUUGUUUUUGAAA	0.139
CUUUGGUUGACAGGAAGUUCCUUUUCCAGGCAGGUCCCGUUGCCACCUCCUGCUCACUCAGUCCCGGGCUCUGCCGAGUGGUCCUGGGAA	0.497
UGUUCUGCAGAGGGGCGGUGUCAUUACUGAUGAAGAGGAAACCUCUAAGAAGAUAGCUGACCAGUUGGACAACAUUGUGGACAUGCGCGA	-1.58
UCCUGUGCUACACAUCGUAUGUACCGAAUCGGUUUUUUGGGGUUUUUUGGGGUUUUUUGGAAAGUAUUAUGUUACGCCGUUCGGAUCUGC	-0.288
AAGUCCUGUGCUACACAUCGUAUGUACCGAAUCGGGGAGGGGUUUUUGGGGUGGGGAAAGUAUUAUGUUACGCCGUUCGGAUCUGCACUU	0.546
UCCUGUGCUACACAUCGUAUGUACCGAAUCGGCCCCCCCGGGCCCCCCCGGCCCCCCCGGAAAGUAUUAUGUUACGCCGUUCGGAUCUGC	0.302
UCAAGUCCUGUGCUACACAUCGUAUGUACCGAAUCGGGUUUGGGAAAGGGUGGGAAAGUAUUAUGUUACGCCGUUCGGAUCUGCACUUCC	1.16

For quick reference, copied from above (block 1):
Strand	bound/input enrichment
GCGGCCUCAUUGCUCCGUUUUCAGAGUACCUUGGUAAUAGCUGAGCAUGCAAAUGAUUCCCCCGCACCCAUUACUCUAAAUACUAUCACUGCAGCUGGACGUCUUGGAGGUGAAGUGUCC	0.324 ratio
CAGCAGUCAUCUCUCAGUAGGGACUCACAGGGUCAUGGGCGUGACCUGUCUGCGGCAGGAACCGGCCUUCUUGCUGCUGCUACCCAGUCUUUAAGUAUGCCAGCAUCUCUUGGAAGGAUG	0.0554 ratio
AAUAAAAUGUACAAAUUUGUUGUGUUUUUUUAUGUUCUAAUAAUACUGAGACUUCCCGGUCUCCGGUUAAUUUUUAGGAAGAUCUUGCAUGCCAUCAGGAGUAAAUUUUAUUGUGGUUCU	0.755 ratio
CCGAUGAACAGGAAAUCAAUGCCUGAGGCUGACUUCAGCUCCUGGACACCCUUAGAAUUCCCCGUUGAAACUUUCCAUGACUGGAUCACAGGGAAAAACCGACCGAGCUCAGGAAGCCUA	0.191 ratio
